Measured values gathered from unrelated publications.
Lines come from different studies, so protocols differ.
Cell line: HL-60

Structure (SMILES) | test | conditions | IC50
COc1cc(O)cc(/C=C/c2ccccc2)c1 | ROS generation, inhibitor, DCFH-DA | with: PMA | > 25 µg/mL
COc1ccc(/C=C/C(=O)/C=C2/C(=O)Nc3cc(Br)ccc32)cc1 | cell viability, MTT | 24 h | 1.7 µM
CC(C)/C=C/c1c(O)cc(/C=C/c2ccc(O)cc2)cc1O | reactive oxygen species, inhibitor, fluorescence | – | 0.17 µg/mL
Cc1ccc(C(C)C)cc1.Cc1ccc(C(C)C)cc1.[Cl][Ru][Cl].[Cl][Ru][Cl] | cell growth or viability, MTT | 48 h | 401 µM
O=C1c2cccc(O)c2C(=O)c2c(O)cc(CO)cc21 | cell growth or viability, ATP luminescence | 24 h | 225 µM
C[C@@H]1CC2=C(CN1Cc1cccc(C#N)c1)C(=O)N(Cc1ccc(Br)cc1)C1=NCCN12 | cell growth, MTS | 72 h | 0.0046 µM
COc1ccc(/C=C/C(/C=C2/C(=O)Nc3cc(Br)ccc32)=N\O)cc1 | cell growth or viability, MTT | 24 h | 3.3 µM
Cc1cc(C)n(C(N)=S)n1.Cc1ccc(C(C)C)cc1.[Cl][Ru][Cl] | cell growth or viability, MTT | 48 h | 88.9 µM
Cc1cc(O)c2c(c1)C(=O)c1cc(O)cc(O)c1C2=O | cell growth or viability, ATP luminescence | 24 h | 5 µM
COc1cc(/C=C/c2ccccc2)cc(OC)c1 | ROS generation, inhibitor, DCFH-DA | with: PMA | > 25 µg/mL
C(=C\c1ccccc1)/c1ccccc1 | cell growth or viability, ATP luminescence | 24 h | 135 µM
Oc1cc(O)cc(/C=C/c2ccccc2)c1 | ROS generation, inhibitor, DCFH-DA | with: PMA | > 25 µg/mL
O=c1c(O)c(-c2ccc(O)c(O)c2)oc2cc(O)cc(O)c12 | cell growth or viability, ATP luminescence | 24 h | 8 µM
CCCCNc1ncnc2c1sc1nc3ccccc3cc12 | cell growth or viability, trypan blue | 48 h | 12 µM
